Measured values of several laboratories.
Parts stem from different laboratories: compare values within a part only. Values joined by “and” are separate records of one study, mostly repeats; a detail may differ.
Sequence of UniProt P42336 (whole entry, unmodified, looked up): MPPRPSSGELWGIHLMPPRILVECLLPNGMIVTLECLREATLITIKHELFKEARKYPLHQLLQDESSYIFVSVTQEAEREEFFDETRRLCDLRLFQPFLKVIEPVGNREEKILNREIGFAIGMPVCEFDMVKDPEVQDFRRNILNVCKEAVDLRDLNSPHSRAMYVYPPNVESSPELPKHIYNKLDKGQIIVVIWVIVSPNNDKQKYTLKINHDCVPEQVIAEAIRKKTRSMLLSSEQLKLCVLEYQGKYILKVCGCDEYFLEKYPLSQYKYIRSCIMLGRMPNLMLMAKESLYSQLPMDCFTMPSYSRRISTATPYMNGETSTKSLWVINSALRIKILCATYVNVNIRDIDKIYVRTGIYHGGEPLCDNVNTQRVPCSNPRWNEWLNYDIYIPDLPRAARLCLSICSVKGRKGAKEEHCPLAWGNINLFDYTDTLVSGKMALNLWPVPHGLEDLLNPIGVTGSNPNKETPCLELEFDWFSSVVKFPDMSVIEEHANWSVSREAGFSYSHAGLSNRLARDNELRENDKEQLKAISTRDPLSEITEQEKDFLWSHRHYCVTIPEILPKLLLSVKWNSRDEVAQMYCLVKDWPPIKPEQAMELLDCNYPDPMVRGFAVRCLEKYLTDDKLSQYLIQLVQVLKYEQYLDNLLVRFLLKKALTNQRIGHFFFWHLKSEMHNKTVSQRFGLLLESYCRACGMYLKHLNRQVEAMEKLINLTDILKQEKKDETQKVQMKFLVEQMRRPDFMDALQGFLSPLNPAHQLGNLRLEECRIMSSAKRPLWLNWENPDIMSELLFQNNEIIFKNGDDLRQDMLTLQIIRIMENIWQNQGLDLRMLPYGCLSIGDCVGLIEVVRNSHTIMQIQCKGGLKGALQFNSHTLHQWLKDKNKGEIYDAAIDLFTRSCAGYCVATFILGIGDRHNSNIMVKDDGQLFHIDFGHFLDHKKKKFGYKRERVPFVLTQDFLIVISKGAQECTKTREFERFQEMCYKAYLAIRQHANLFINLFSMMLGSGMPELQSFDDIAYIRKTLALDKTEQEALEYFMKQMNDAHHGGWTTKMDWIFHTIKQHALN
Sequence of UniProt P42685 (whole entry, looked up): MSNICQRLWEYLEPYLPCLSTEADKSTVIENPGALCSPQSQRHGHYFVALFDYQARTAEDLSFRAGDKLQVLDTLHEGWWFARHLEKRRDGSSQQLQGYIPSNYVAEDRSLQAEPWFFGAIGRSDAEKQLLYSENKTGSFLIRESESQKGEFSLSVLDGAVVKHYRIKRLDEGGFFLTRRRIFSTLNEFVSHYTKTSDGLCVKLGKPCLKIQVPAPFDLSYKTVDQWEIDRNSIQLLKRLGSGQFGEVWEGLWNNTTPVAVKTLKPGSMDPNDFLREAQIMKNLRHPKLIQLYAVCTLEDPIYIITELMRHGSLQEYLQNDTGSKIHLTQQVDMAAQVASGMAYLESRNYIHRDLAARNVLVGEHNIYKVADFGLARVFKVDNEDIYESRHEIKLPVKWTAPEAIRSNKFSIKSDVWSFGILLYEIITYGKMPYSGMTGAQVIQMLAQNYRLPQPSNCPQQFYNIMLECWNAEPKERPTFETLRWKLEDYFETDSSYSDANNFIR
Sequence of UniProt Q04759 (whole entry, looked up): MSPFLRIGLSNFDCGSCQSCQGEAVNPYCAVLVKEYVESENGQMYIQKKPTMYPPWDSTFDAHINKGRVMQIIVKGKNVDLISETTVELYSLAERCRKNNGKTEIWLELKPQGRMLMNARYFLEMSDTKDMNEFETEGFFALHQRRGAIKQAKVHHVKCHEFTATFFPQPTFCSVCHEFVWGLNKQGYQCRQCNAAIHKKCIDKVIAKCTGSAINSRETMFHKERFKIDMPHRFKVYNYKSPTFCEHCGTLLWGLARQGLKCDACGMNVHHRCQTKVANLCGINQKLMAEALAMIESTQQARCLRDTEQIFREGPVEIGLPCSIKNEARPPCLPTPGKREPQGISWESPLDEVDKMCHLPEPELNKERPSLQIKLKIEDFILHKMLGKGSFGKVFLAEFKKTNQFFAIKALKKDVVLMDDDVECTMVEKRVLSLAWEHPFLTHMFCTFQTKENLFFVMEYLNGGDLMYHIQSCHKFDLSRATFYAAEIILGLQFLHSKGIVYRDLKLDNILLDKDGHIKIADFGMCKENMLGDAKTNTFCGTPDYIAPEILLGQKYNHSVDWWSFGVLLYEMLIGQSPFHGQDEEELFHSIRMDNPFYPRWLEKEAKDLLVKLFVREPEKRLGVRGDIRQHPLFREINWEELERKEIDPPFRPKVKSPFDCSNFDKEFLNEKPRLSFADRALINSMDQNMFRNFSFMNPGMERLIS
Sequence of UniProt Q59H18 (whole entry, looked up): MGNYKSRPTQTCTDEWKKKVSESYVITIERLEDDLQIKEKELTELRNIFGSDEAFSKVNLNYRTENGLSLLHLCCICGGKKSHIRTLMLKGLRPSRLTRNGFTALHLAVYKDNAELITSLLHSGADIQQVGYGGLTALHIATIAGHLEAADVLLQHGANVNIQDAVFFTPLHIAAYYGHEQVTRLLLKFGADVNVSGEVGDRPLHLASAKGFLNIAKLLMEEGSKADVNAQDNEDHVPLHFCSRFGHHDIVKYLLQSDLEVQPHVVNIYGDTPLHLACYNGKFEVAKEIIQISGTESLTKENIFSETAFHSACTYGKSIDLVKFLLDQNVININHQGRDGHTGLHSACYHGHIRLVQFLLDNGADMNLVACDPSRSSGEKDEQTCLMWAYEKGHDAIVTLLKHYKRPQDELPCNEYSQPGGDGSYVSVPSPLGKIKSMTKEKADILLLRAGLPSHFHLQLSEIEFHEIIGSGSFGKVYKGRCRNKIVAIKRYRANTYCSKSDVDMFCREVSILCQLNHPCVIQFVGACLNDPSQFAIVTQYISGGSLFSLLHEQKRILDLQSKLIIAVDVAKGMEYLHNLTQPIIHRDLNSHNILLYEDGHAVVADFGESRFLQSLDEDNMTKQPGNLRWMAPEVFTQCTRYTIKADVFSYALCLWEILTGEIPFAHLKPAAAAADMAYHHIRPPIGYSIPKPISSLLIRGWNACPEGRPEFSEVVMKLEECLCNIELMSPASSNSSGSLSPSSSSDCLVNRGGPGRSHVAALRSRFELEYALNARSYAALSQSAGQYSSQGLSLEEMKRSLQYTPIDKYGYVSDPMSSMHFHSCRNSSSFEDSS
Sequence of UniProt P49674 (whole entry, looked up): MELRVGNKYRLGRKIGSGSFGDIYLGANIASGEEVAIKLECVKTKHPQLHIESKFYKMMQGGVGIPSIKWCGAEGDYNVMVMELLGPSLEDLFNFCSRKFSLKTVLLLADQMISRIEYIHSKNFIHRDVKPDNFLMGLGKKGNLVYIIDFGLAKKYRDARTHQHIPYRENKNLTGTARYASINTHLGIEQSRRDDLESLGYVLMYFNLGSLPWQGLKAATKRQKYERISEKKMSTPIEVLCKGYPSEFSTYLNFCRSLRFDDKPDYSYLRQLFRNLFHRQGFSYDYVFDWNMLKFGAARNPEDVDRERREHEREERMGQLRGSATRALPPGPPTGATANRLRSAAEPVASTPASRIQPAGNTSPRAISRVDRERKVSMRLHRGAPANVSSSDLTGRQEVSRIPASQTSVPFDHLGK
Sequence of UniProt P24723 (whole entry, looked up): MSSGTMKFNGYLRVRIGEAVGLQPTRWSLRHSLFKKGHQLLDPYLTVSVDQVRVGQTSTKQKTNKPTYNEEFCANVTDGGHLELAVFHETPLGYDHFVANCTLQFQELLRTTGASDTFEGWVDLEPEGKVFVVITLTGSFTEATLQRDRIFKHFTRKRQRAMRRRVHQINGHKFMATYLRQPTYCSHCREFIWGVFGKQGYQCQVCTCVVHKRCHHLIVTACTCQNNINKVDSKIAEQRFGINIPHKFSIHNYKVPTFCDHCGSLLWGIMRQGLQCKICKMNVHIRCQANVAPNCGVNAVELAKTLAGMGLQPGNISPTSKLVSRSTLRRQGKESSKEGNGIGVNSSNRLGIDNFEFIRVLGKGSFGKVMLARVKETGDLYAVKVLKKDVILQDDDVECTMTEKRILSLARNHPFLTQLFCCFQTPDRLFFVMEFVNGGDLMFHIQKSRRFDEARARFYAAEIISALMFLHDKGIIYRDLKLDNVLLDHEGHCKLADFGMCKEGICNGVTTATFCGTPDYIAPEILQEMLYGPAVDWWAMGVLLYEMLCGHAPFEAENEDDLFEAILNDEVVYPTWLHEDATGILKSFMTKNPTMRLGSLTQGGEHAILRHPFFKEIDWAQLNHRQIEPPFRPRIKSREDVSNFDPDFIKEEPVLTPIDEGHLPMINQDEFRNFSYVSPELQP
Sequence of UniProt Q15418 (whole entry, looked up): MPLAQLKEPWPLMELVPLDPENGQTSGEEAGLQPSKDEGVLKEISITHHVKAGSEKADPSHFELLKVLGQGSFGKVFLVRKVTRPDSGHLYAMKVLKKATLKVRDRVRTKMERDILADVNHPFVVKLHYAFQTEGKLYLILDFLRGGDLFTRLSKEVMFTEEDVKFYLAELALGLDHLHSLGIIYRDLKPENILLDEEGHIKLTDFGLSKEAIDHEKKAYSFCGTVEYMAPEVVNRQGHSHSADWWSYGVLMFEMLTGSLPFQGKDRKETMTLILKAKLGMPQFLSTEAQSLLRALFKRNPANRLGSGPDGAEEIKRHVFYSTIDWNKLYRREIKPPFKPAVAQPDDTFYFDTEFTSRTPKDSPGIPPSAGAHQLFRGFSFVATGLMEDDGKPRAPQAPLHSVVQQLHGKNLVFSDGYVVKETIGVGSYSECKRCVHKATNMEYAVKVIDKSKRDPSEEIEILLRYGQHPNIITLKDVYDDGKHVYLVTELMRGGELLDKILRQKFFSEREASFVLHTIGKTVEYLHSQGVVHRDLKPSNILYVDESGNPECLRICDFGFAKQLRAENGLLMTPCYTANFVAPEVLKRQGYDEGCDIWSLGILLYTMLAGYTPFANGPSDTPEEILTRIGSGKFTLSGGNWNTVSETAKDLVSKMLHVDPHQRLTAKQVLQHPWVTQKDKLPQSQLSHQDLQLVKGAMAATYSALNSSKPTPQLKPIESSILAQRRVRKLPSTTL

Series 1
SMILES: CNC(=O)c1ccc(Nc2ncc(C(F)(F)F)c(NCc3nccnc3N(C)S(C)(=O)=O)n2)cc1
Method: competition with immobilised ligand
It gave 75% for remaining binding (PAK1 (Homo sapiens, UniProt Q13153); cell-free assay; 0.1 µM).
PRKAA1 (Homo sapiens, UniProt Q13131); cell-free assay; 0.1 µM — remaining binding: 84%.
The remaining binding was 89% (LTK (Homo sapiens, UniProt P29376); cell-free assay; 0.1 µM).
For MYLK3 (Homo sapiens, UniProt Q32MK0); cell-free assay; 0.1 µM: remaining binding read 100%.
The remaining binding was 93% (PRKACB (Homo sapiens, UniProt P22694); cell-free assay; 0.1 µM).
For Tyrosine-protein kinase ABL1, phosphorylated (ABL1, Homo sapiens, UniProt P00519, Q252H); cell-free assay; 0.1 µM: remaining binding read 100%.
EGFR (Homo sapiens, UniProt P00533, del746-750); cell-free assay; 0.1 µM — remaining binding: 91%.
The remaining binding was 100% (FRK (Homo sapiens, UniProt P42685); cell-free assay; 0.1 µM).
PIK3CA (Homo sapiens, UniProt P42336); cell-free assay; 0.1 µM — remaining binding: 100%.
Ribosomal protein S6 kinase alpha-1, N-terminal kinase domain (RPS6KA1, Homo sapiens, UniProt Q15418); cell-free assay; 0.1 µM — remaining binding: 100%.
The remaining binding was 100% (PRKD1 (Homo sapiens, UniProt Q15139); cell-free assay; 0.1 µM).
It gave 100% for remaining binding (PRKCE (Homo sapiens, UniProt Q02156); cell-free assay; 0.1 µM).
For MAP3K9 (Homo sapiens, UniProt P80192); cell-free assay; 0.1 µM: remaining binding read 44%.
For RET (Homo sapiens, UniProt P07949); cell-free assay; 0.1 µM: remaining binding read 60%.
It gave 100% for remaining binding (PIK3CA (Homo sapiens, UniProt P42336, M1043I); cell-free assay; 0.1 µM).
Tyrosine-protein kinase ABL1, phosphorylated (ABL1, Homo sapiens, UniProt P00519, F317L); cell-free assay; 0.1 µM — remaining binding: 93%.
The remaining binding was 100% (BMPR1A (Homo sapiens, UniProt P36894); binding; 0.1 µM).
FLT3 (Homo sapiens, UniProt P36888, N841I); binding; 1 µM — remaining binding: 0%.

Series 2
Host: human
Sample: microsomes or S9
Tested at: 2 µM
Time: 0.5 h
`CC[C@@H](C)[C@H](NS(=O)(=O)c1ccccc1)C(=O)O` has a remaining compound of 67.5%.
`COC(=O)c1cc2c(c(N(C)C)c1)OC(C)(C)C=C2` has a remaining compound of 0.0607%.
`CCc1nc(-c2cccc(-c3noc(-c4sc(C)nc4C)n3)c2)cs1` gave a remaining compound of 83.1%.
With `COCCN1C(=O)C(CC(=O)O)=C2CCCCC21` (stereo not drawn) the remaining compound was 80.4%.
`C/C=C/Cn1c(C(=O)c2cc(C)cc(C)c2)c(CC)c(=O)[nH]c1=O` gave a remaining compound of 28.2%.

Series 3
SMILES: C=CC(=O)N1CCC([C@@H]2CCNc3c(C(N)=O)c(-c4ccc(Oc5ccccc5)cc4)nn32)CC1
Tested at: 1 µM
The inhibition was 19% (CSNK1E (Homo sapiens, UniProt P49674); enzyme activity, inhibitor).
It gave 42% for inhibition (TNNI3K (Homo sapiens, UniProt Q59H18); cell-free assay).
PRKCQ (Homo sapiens, UniProt Q04759); enzyme activity, inhibitor — inhibition: 0%.
For PHKG2 (Homo sapiens, UniProt P15735); enzyme activity, inhibitor: inhibition read 0%.
The inhibition was 8% (PRKCH (Homo sapiens, UniProt P24723); enzyme activity, inhibitor).
FLT3 (Homo sapiens, UniProt P36888, D835V/ITD); enzyme activity, inhibitor — inhibition: 0%.

Series 4
Structure (SMILES): C[C@H]1CC[C@H](n2c3cnccc3c3cnc(Nc4ccc5c(n4)CCN(C(=O)CO)C5)nc32)CC1
Tested at: 1 µM
It gave 100% for remaining binding (LIM domain kinase 2 (LIMK2, Homo sapiens, UniProt P53671); binding, competition with immobilised ligand).
It gave 100% for remaining binding (NIM1K (Homo sapiens, UniProt Q8IY84); binding).
TNK1 (Homo sapiens, UniProt Q13470); binding, competition with immobilised ligand — remaining binding: 34%.
For FRK (Homo sapiens, UniProt P42685); cell-free assay, competition with immobilised ligand: remaining binding read 84%.

Series 5
Cell line: mouse MPNST tumor cells
Method: high-content immunofluorescence imaging
Refers to: nuclear SOX9
Tested at: 10 µM
Time: 12 h
Setting: mean of 2 replicates
Relative to: DMSO control
Reading: higher = more nuclear SOX9
`COc1cc(C(=O)N(CCC2CCCN2C)C/C(C)=C/c2ccccc2F)cc(OC)c1OC` (stereo not drawn) — result for “nuclear SOX9 intensity”: 102 % of DMSO.
`O=c1[nH]cc(F)c(=O)[nH]1`: “nuclear SOX9 intensity” 108 % of DMSO and 107 % of DMSO.
For `COC(=O)[C@H]1[C@H]2C[C@@H]3c4[nH]c5cc(OC)ccc5c4CCN3C[C@H]2C[C@@H](OC(=O)c2cc(OC)c(OC)c(OC)c2)[C@@H]1OC`, “nuclear SOX9 intensity” read 121 % of DMSO.
`Cc1cc2c(cc1C(F)(F)F)N(C(=O)Nc1ccc(Oc3cccnc3C)nc1)CC2` — result for “nuclear SOX9 intensity”: 124 % of DMSO.
`O=C1NC(=O)c2cc(Nc3ccccc3)c(Nc3ccccc3)cc21`: “nuclear SOX9 intensity” 164 % of DMSO.
`CCOC(=O)Nc1ccc2c(c1)N(C(=O)CN(CC)CC)c1ccccc1CC2`: “nuclear SOX9 intensity” 81.3 % of DMSO.

Excerpt of the above (series 1):
It gave 100% for remaining binding (PRKCE (Homo sapiens, UniProt Q02156); cell-free assay; 0.1 µM).
For MAP3K9 (Homo sapiens, UniProt P80192); cell-free assay; 0.1 µM: remaining binding read 44%.
For RET (Homo sapiens, UniProt P07949); cell-free assay; 0.1 µM: remaining binding read 60%.
It gave 100% for remaining binding (PIK3CA (Homo sapiens, UniProt P42336, M1043I); cell-free assay; 0.1 µM).
